# Assay results from different studies.
# Every numbered part comes from another study and shows a few of its results, in no order.
# Sequence of UniProt P13945 (whole entry, looked up): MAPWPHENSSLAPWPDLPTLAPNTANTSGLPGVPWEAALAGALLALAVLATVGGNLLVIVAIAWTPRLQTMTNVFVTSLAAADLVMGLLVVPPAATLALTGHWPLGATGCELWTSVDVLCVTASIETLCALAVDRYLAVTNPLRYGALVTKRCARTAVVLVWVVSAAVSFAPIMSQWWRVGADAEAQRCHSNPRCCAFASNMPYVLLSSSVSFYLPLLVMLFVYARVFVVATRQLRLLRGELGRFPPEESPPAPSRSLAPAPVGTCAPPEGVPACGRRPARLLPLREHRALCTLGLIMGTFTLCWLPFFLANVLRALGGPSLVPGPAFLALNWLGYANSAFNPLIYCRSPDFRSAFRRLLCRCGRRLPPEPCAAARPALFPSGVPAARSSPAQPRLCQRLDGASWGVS

# Block 1
# Target: Sal-like protein 4, full length isoform B (SALL4, Homo sapiens, UniProt Q9UJQ4-2, residues 1-616)
# Method: universal PBM
# Form: double-stranded DNA, one strand shown
# Medium: in vitro
# Concentration: not given
# Notes: 8-mer, flanks averaged, mean of replicates
# Reading: higher = stronger binding
# Residues (chain): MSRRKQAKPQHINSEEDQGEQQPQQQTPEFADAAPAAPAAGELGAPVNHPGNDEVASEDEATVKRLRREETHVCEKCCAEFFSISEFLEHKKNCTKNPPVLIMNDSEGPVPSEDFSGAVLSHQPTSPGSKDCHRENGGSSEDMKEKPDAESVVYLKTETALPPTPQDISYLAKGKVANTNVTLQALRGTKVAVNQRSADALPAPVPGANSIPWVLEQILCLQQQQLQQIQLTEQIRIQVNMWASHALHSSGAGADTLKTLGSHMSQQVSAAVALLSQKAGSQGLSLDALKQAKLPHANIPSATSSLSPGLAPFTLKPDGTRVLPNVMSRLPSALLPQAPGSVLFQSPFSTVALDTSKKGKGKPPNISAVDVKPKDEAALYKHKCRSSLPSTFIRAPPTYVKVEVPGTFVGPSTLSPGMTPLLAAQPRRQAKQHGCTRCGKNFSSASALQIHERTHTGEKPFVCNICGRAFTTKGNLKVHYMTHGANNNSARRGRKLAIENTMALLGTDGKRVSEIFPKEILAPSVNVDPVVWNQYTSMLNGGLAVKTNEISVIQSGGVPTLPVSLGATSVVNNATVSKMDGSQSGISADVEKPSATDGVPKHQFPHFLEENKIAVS
Strand,E-score
AATTGCAC,0.0505
CCCGTGAA,-0.00532
ATACTTAC,0.232
ATTTCCGG,-0.0302
GAATTACA,0.182
ACACAGAC,0.0531
GACCTCTA,-0.199
TACTATAA,0.281

# Block 2
# Target: TAR DNA-binding protein 43, full length, His tag (TARDBP, Homo sapiens, UniProt Q13148, residues 1-414)
# Method: RNA Bind-n-Seq
# Form: RNA
# Medium: in vitro
# Concentration: 20 nM
# Notes: 6-mer, flanks averaged, single round
# With: 150 mM KCl
# Reference: input library
# Reading: higher = stronger binding
Strand,6-mer enrichment (R)
AUCUGU,0.605
AGGAAG,1.72
GGGUGA,3.55
CUGGUA,0.76
UCUGCU,0.597
GCGAGU,1.48
CGCCCC,0.677
GCAAUA,0.71

# Other studies, line by line
SMILES,tested on,assay,test system,setting,endpoint,value
C[C@H](NC(=O)Nc1cc2[nH]ncc2c(CO)n1)c1ccccn1,"ADRB3 (Homo sapiens, UniProt P13945)",cell-free assay,,10 µM,inhibition,13.6%
O=c1[nH]cnc2c1nnn2Cc1cc(F)cc(F)c1,,,"mouse, microsomes or S9","2 µM, 0.5 h",remaining compound,89.8%

# Repeated from above (block 1):
Strand,E-score
ATTTCCGG,-0.0302
GAATTACA,0.182
